Published values from different studies.
Parts stem from different laboratories: compare values within a part only.

Sample 1
Target: RING finger protein unkempt homolog, zinc fingers 1-6, GST-SBP tag (UNK, Homo sapiens, UniProt Q9C0B0, residues 30-357)
UniProt Q9C0B0, sequence (30-357, looked up): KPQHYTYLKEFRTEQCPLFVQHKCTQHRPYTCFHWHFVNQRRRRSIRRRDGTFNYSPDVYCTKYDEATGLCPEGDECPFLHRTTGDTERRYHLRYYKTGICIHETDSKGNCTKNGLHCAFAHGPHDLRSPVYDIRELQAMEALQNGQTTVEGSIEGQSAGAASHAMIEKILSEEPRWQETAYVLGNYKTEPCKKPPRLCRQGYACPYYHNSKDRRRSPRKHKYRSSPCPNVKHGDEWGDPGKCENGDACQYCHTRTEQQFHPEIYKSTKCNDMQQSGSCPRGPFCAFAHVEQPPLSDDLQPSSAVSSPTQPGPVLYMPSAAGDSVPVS
Technique: RNA Bind-n-Seq
Molecule type: RNA
Medium: in vitro
Tested at: not given
Notes: RNA with constant flanks, ends assumed
Baseline: input RNA pool
Reading: higher = stronger binding
Constant ends, left off below: GGGAGUUCUACAGUCCGACGAUC … CAACAGAGGAUUGAGCAUCA
| Strand | bound/input enrichment [ratio] |
| --- | --- |
| UUGUUUAAUAUUUAGAAGCACACAAAAAAGAGGAGAAUCGUUUGGAAUCAGCAGAACCGGCCGCAAAAUUAAAGGCGUAUUCAAGAGUACGACAAUGGAGGGAGCUGUGCUGCCUAAUUA | 0.701 |
| CGUCACAAAGAACUUUUUGCUUUGCAUCCAUCACCAGAUGAGGAAGAACCAAUAGAACGGCUCCGUGUUCCUGAUAUACCCAAAGAACAUUUUGGUCAAAGACUUCUUGUAAAAUGCUUA | 0.155 |
| CAGGGUAUUGCCGCUGUUCUAAUAUUUUUUUAAGCAUAGACAGACUUAUAAUUAAUAUACAUCCGUCCGUGGCGUUGAAACAGUCCUCUGAGACAUUAACUAUAAGACUGUGUUCUGUUU | 0.736 |
| CGCCUGAUGGAAAGCCACGGCUUUGAGGAGUACAUGAAAGAGCUAGGAGUAGGACUGGCUCUCCGGAAGAUGGCUGCCAUGGCCAAGCCAGACUGUAUCAUUACGUGUGAUGGCAACAAC | 0.183 |
| CUAGACUUCAAUAAGAAAAUCCUUCACACAGCCUGGCACCCCAAGGAAAAUAUCAUUGCCGCCGCUACUACAAACAAUCUGUAUAUAUUUCAAGACAAAGUGAAUUAGGGUUGGCAUUCC | 0.998 |
| UUUUACAAGGGGGACAAAGACAAUAAGUAUGUUCCCUACUCGGAGAGCUUCAGCCAAGUUUCCGAGGAAACUUACAUGCUUGCUGUAACUUUGGAUGAAUGGAAAAAGAAACUGGAAUCU | 0.213 |
| CUGGAGAGAAUAAAGAGCAGUCGCAAAUGAAGCUGCCCCACUCCCCCGGCACCCUGCAGCUUCCGUUUACUAAACUAGAAGUCCUCAUAGUUUAAAAUGGCCUCAGCAGGCCUAGUGUAU | 4.51 |
| UCCUUCCCACAUCACAGGGCUACCUUGAGACUCUCCGAGAAGUUUAUCCUUCUCCUCAUCCUCCGUGCCUUCAUCACCCUGUGUUUUGGGGCAUUCUUCUUCCUUCCAGACUCUUCAAAA | 0.321 |
| UGUUAUCUGUUGCAGAAGGGAUGUAUUUGGCAGAAUCUCAGGCUGCAUGUCUGGUAGCUCAUCCGAGCCAGGAGAGAUUUUAGUUUAAUUAUAGCCUUUCAUUGUACUAACGAAGGAUUU | 1.25 |
| UUAGCUAAACAUCCAUGUAAUGCCUCAAUGGAAUGUGACAAGUGUCAGAGGCGGCAGAAGAACCGAGCAUUUUGCUACUUUUGUAAUUCUGUACAGAAGUUACCAAUUUGUGCACAGUGU | 0.343 |
| GAAAAACUUUUUGCUGAAGACACAGAAGCAAAGAACCCAUUUUCUACUCAGGACACAGAUUCCGACUUGGAGAUGUUAGCUCCCUAUAUCCCAAUGGAUGAUGACUUCCAGUUACGUUCC | 0.255 |

Sample 2
Target: Ras GTPase-activating protein-binding protein 1, RRM domain (G3BP1, Homo sapiens, UniProt Q13283)
UniProt Q13283, sequence (whole entry, looked up): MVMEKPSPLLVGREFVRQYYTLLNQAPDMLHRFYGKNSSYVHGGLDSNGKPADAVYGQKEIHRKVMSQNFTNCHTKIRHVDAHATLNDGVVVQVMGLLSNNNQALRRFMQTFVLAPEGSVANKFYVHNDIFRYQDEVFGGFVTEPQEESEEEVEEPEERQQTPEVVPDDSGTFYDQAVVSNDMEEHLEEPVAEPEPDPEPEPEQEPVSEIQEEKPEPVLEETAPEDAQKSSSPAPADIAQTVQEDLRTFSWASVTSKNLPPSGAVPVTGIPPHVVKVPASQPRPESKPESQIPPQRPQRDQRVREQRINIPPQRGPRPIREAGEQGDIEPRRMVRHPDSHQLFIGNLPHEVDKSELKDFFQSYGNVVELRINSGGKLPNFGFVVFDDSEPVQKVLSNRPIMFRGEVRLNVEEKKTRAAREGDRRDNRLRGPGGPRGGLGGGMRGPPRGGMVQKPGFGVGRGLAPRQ
Technique: RNA Bind-n-Seq
Molecule type: RNA
Medium: in vitro
Tested at: 1 µM
Notes: whole 134-nt RNA, ends assumed
With: 150 mM KCl
Baseline: input library
Reading: higher = stronger binding
Constant ends, left off below: GGGAGUUCUACAGUCCGACGAUC … UGGAAUUCUCGGGUGUCAAGG
| Strand | log2 enrichment |
| --- | --- |
| UGGCCCUGGUGGCAUACGGGGAGGAAGAGGUGGCCUCAUGGAUCGUGGUGGUCCCGGUGGAAUGUUCAGAGGUGGCCGUGGUGGAGACAG | 0.901 |
| AGUCCUGUGCUACACAUCGUAUGUACCGAAUCGGGGAAAAAAAGGGGAGGGGAGGGGAAAGUAUUAUGUUACGCCGUUCGGAUCUGCACU | 0.868 |
| UCAAGUCCUGUGCUACACAUCGUAUGUACCGAAUCGGAAAGGAAAAAAAGGUGGAAAGUAUUAUGUUACGCCGUUCGGAUCUGCACUUCC | -0.151 |
| CAAGUCCUGUGCUACACAUCGUAUGUACCGAAUCGGAAAGGAAAGGGGAAAGGGGAAAGUAUUAUGUUACGCCGUUCGGAUCUGCACUUC | -0.0796 |
| CACAGACAACACGCACCCACACAGACAGAGAGGGAAGGGGUUGGGAUGGGGACAGGGUGCACAGCAGGGCGGGGUAGGACCCCAGCCCCU | -0.0301 |
| CAAGUCCUGUGCUACACAUCGUAUGUACCGAAUCGGUUUGGGUUUGGGGUUUGGGAAAGUAUUAUGUUACGCCGUUCGGAUCUGCACUUC | -0.331 |
| CCUGUGCUACACAUCGUAUGUACCGAAUCGGAAAAAAGGGGAAAAAAGGGGAAAAAAGGGAAAGUAUUAUGUUACGCCGUUCGGAUCUGC | -0.0748 |
| CUGUGCUACACAUCGUAUGUACCGAAUCGGAAAAAAAGGGAAAAAAAGGGGAAAAAAAGGGGAAAGUAUUAUGUUACGCCGUUCGGAUCU | 0.174 |
| AGUCCUGUGCUACACAUCGUAUGUACCGAAUCGGGUUUUUGGGUGGGAAAAAAAGGGAAAGUAUUAUGUUACGCCGUUCGGAUCUGCACU | 0.232 |
| GGAAGGGGGCUUGCGCCACGGCAGUGAAUCUUCAUGGAUCUUCAUGCAGCCAUACAAACCCUGGUUCCAACAGAAUGGUGAAUUUUCGAC | -0.171 |
| CCUCAAGUCCUGUGCUACACAUCGUAUGUACCGAAUCGGGGAGGGAGGAGGGGAAAGUAUUAUGUUACGCCGUUCGGAUCUGCACUUCCA | 0.177 |
| UAACUUUAGAGGAGGAUCUGAUGGAUAUGGCAGUGGACGUGGAUAUGGGGAUGGCUAUAAUGGGUAUGGAGGAGGACCUGGAGGUGGCAA | -0.386 |
| UGGCCCUGGUGGCAUGCGGGGAGGAAGAGGUGGCCUCAUGGAUCGUGGUGGUCCCGGUGGAAUGUUCAGAGGUGGCCGAGGUGGAGACAG | 1.3 |
| CUCAAGUCCUGUGCUACACAUCGUAUGUACCGAAUCGGAGGAAAAAAAGGUGGAAAGUAUUAUGUUACGCCGUUCGGAUCUGCACUUCCA | -0.27 |

Sample 3
Target: Interferon regulatory factor 5, full length, phosphomimetic (IRF5, Homo sapiens, UniProt Q13568-2, residues 1-514, S451D/S453D/S456D/S462D)
Technique: protein-binding microarray
Molecule type: double-stranded DNA, one strand shown
Medium: in vitro
Tested at: 940 nM top
Notes: 60-bp whole probe
With: salmon DNA 0.4 mg/ml
Baseline: random background probes
Reading: higher = stronger binding
Constant ends, left off below: GCCTAGCAC … GTCTTGATTCGCTTGACGCTGCTG
| Strand | fitted relative affinity [z-score] |
| --- | --- |
| TCACATATTTGTTTCCAACTGTGCTAG | 0.823 |
| GACGGTCTCGGACTGGAGACGTGCTAG | 0.583 |
| TCATTTTTTTTTTTTCTACTGTGCTAG | 1.4 |
| TAACCTTGAACTTTGGCCTCGTGCTAG | -0.211 |
| CACGGTATCGGGTTTCGGGACGTGCTA | 4.98 |
| ACAGCAAGCAGGGCCAGCCCGTGCTAG | -1.09 |
| GACGTTTTCGGTTTCGGGACGTGCTAG | 6.62 |
| GCCGGTATCGGTATCGGGACGTGCTAG | 10.1 |
| GGCGGTTTCGACACTGGGGACGTGCTA | 7.29 |
| GTTGCTCTCCGGGGTCTGTGAGTGCTA | 0.325 |
| GACGACCTGAGTTTCGAGACGTGCTAG | 3.47 |
| TCATGCTTCTGTATTCAACTGTGCTAG | 0.404 |
| TTAGGGTTCGGGTATCGGTTAGTGCTA | 3.04 |
| GACGGTTCCGGGTTTCGGGACGTGCTA | 2.88 |
| GTGTATATGACAATGATGTTGTGCTAG | 0.153 |
| GACGTTTTCGGGACTGGGGACGTGCTA | 0.824 |
| TGGTCTTTCCACTTTCTTTTGTGCTAG | 1.81 |
| GCACGTGACTGTTTCCCAATGTGCTAG | -0.207 |
| TCATTTTTTTCTTTAAAACTGTGCTAG | 0.52 |
| GACGAACTTAGACTGGAGACGTGCTAG | -0.443 |
| TCAAATTTATAAATAAAACTGTGCTAG | 0.0284 |
| CATTTTTTTTTTCTACTTCTGTGCTAG | 1.94 |
| TTAGATATCGTGTTTCGATTAGTGCTA | 2.05 |
| GACGGACTGCACACTGGGGACGTGCTA | -0.232 |
| GTCGGTCTCGGTTTCGGGACGTGCTAG | 8.89 |

Sample 4
Target: Histone acetyltransferase KAT6A, both winged helices, GST fusion (KAT6A, Homo sapiens, UniProt Q92794, residues 1-181)
Technique: protein binding microarray
Molecule type: double-stranded DNA, one strand shown
Medium: in vitro
Tested at: not given
Notes: 8-mer, flanks averaged, mean of 2 arrays, mostly near background
Baseline: not given
Reading: higher = stronger binding
Residues (chain): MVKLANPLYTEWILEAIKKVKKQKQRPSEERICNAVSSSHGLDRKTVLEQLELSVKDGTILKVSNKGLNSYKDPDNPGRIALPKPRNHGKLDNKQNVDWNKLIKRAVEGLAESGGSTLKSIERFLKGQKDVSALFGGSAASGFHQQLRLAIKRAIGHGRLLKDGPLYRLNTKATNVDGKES
| Strand | E-score |
| --- | --- |
| TATCTCCA | -0.147 |
| ATTCCTAA | -0.147 |
| CCCCCAGG | -0.235 |
| GGTCCTCA | -0.00416 |
| CCACGGAC | 0.166 |
| AAGAAATG | -0.177 |
| CTTTATGA | -0.171 |
| ATTATGAG | -0.0264 |
| AACGGCTA | 0.229 |
| AGACTAGG | -0.108 |
| AAACCCCG | 0.144 |
| AAGCAACA | -0.146 |
| ATTCTCGG | 0.123 |
| TCTTATAA | 0.0451 |
| CCTTTAGA | -0.101 |
| ACCATCGC | 0.171 |
| GAATCGAA | -0.0132 |
